Published values collected from several papers.
Compare with care: the assays were run in different laboratories. Several values in a cell are separate wells, animals, samples, runs or records. ± marks the error that the study gave.

SMILES	assay	test system	conditions	how to read	measurement	result
O=C(Nc1nc2cccc(-c3ccc(CN4CCS(=O)(=O)CC4)cc3)n2n1)C1CC1	refers to: rheumatoid arthritis	rheumatoid arthritis patients	oral, 150 mg once daily, 4 weeks, any relatedness	–	treatment-emergent adverse events	0%
O=C(O)CSc1nnc(Br)n1-c1ccc(C2CC2)c2ccccc12	–	KM mouse, chronic hyperuricaemia model	dose not given, day 17	–	body weight	29 g and 34 g and 38 g and 31.2 g and 35 g and 34.4 g
CCc1c(-c2ccccc2)c(-c2ccccc2)nn1-c1ccccc1-c1cccc(OCC(=O)O)c1	–	male Sprague-Dawley rat, testis homogenate	oral, 10 mg/kg, 8 h	–	concentration	30.9 ng/mL
FC(F)(F)c1ccc(CNc2ccc(Cc3c[nH]c4ncc(Cl)cc34)cn2)cn1	refers to: Headache	patients with advanced solid tumours, all cohorts	oral, 1000 mg/day, any grade	–	treatment-related adverse events	10%
OCC1=C[C@@H](O)[C@@H]2C=CO[C@@H](O[C@@H]3O[C@H](CO)[C@@H](O)[C@H](O)[C@H]3O)[C@H]12	three freeze-thaw cycles	rat plasma	200 ng/mL, -70 °C freeze	–	accuracy	96.6%
CCO[C@H]1CCN(Cc2c(OC)cc(C)c3[nH]ccc23)[C@H](c2ccc(C(=O)O)cc2)C1	–	PNH patients, active haemolysis	oral, 100 mg, 8 weeks, treatment	–	incidence upper respiratory infection	28.6%
Cc1noc(C)c1Cn1cc(N2C(=O)CN(Cc3cccc(O)c3)C2=O)cn1	–	pooled human liver microsomes	1 µM, 10 min, pH 7.4	–	remaining parent	73 % peak area
COc1nnc2ccc(N3CCC(c4ccc(OCCN5CCN(C)C(=O)[C@H]5C)cc4)CC3)nn12	–	patients, plasma	oral, 10 mg twice daily, single dose, monotherapy	–	AUC(0-t)	0.156 µM·h
COc1ccc([C@@H](O)c2cc(-c3ncnc4cc(N5CCOCC5)ccc34)c(F)cc2Cl)nn1	–	mouse, hippocampus	125 mg/kg, 4 h, added: 5 Gy radiation	relative to: radiation alone	γH2AX foci resolution	no effect
NC(=O)c1cc(Oc2ccc(NC(=O)Nc3ccc(Cl)c(C(F)(F)F)c3)c(F)c2)cc[n+]1[O-]	long-term stability	mouse plasma	75 ng/mL, 6 months, -80 °C	–	accuracy	104%
COc1cc(C(=O)NC2CCN(C)CC2)c(F)cc1Nc1ncc(C(F)(F)F)c(Oc2cccc3c2C(=O)N(C)C3)n1	–	human patients, urine and plasma	oral, 25 mg single dose, geometric mean	–	renal clearance (0-24 h)	9.91 mL/min
Cl.[2H]C([2H])([2H])CC(=O)c1cnc(NC(=O)C2CC2)cc1Nc1cccc(-c2ncn(C([2H])([2H])[2H])n2)c1OC	–	human, fasted, multiple dose	oral, 40 mg twice daily, tablet, day 14, geometric mean	–	Vss/F	221 L
O=S(=O)(c1ccc(-c2ccc3nccc(Nc4ccncn4)c3c2)cc1)N1CCOCC1	–	female BALB/c mice, brain homogenate	intraperitoneal, 10 mg/kg, 0.08 h, mean	–	brain concentration	29.1 ng/mL
C1=C/COCc2cc(ccc2OCCN2CCCC2)Nc2nccc(n2)-c2cccc(c2)COC/1	–	Sprague-Dawley rats, male, plasma	oral, dose not given, added: isavuconazole	relative to: isavuconazole alone	apparent volume of distribution	54 % decrease
C[Si](C)(C)O[Si](C)(C)O[Si](C)(C)O[Si](C)(C)O[Si](C)(C)C	–	octanol/water	–	–	octanol-water partition coefficient	2.57e+09
OC[C@H]1O[C@@H](c2ccc(Cl)c(Cc3ccc(O[C@H]4CCOC4)cc3)c2)[C@H](O)[C@@H](O)[C@@H]1O	–	healthy humans, plasma	oral, 25 mg, alone	–	Vss/F	91.5 ± 18.8 L
O=C(OC(C(F)(F)F)C(F)(F)F)N1CCN(Cc2cccc(Oc3ccccc3)c2)CC1	PET blocking study	rhesus monkey, brain HIP	0.3 mg/kg, compound pretreatment, added: [18F]T-401 tracer	–	k2	1.81 min⁻¹
CC(C)(Sc1ccncc1-c1ccc(C#N)c2ccccc12)C(=O)O	–	human, urine	oral, 5 mg, added: febuxostat 0 mg	–	amount excreted in urine (0-24 h)	87.2 µg
COc1ccc2c(c1)CN(C(=O)CCN1CCC(Cc3ccccc3)CC1)CC[S@@+]2[O-]	telemetry	conscious male beagle dogs	intravenous, 8 mg/kg, 0.5 h	–	PQ interval	72 ± 12 ms
Cn1cc([C@H]2C[C@H]3CSC(N)=N[C@@]3(c3ccc(F)cc3F)CO2)cn1	–	mouse	subcutaneous, 3 mg/kg, 6 h	–	CSF concentration	not detected
C/C=C/C(=O)Nc1ccc(-n2nc3c(=O)[nH]nc(N)c3c2-c2oc3ccc(C)cc3c2C)cc1	–	BALB/c nude mouse, whole blood	1 µM, 5 h, 37 °C	–	remaining compound	95%
Cc1cc(-c2nccc3c2ccn3CC(=O)Nc2ccc(-c3cnccn3)cn2)ccn1	–	human, plasma and urine	oral, 20 mg once daily, day 16, geometric mean	–	renal clearance	0.152 L/h
CCN1CCN(Cc2ccc(Nc3ncc(F)c(-c4cc(F)c5nc6n(c5c4)[C@H](C)CCC6)n3)nc2)CC1	–	human, phase Ia	50 to 500 mg, single dose	–	Tmax	4 to 17 h
N#Cc1ccc(-c2cnc3ccc(-c4ccc(C(=O)N5CCOCC5)cc4)cn23)cc1	refers to: QT interval	healthy volunteers	oral, 20 mg, fasted, time-averaged	–	placebo-corrected change from baseline	-7.1 ms
C/C(O)=C(\C#N)C(=O)Nc1ccc(C(F)(F)F)cc1	–	CD-1 mice female, plasma	oral, 10 mg/kg leflunomide daily, 24 h	–	free plasma concentration	90700 ± 13700 nM
Cc1c(O)c(=O)ccn1CCO.Cl	shake-flask, refers to: iron(III) complex	1-octanol/Tris buffer	pH 7.4, ligand:iron 10:1	–	partition coefficient	0.003 ± 0.0005
CNC(=O)c1ccc(-c2cnc3ncc(Cc4ccc5ncccc5c4)n3n2)cc1F	refers to: Pyrexia	gastric cancer patients	oral, 600 mg twice daily, expansion cohort, grade 3-4	–	patients with adverse event	11%

SMILES	assay	test system	conditions	how to read	measurement	result
CCN(CC)CCNC(=O)c1cc(Cl)c(N)cc1OC	ultrafiltration	dog, cell homogenate	1 µM, 15 min	–	unbound fraction in cells	0.17
NC1(C(=O)N[C@@H](CCO)c2ccc(Cl)cc2)CCN(c2nc[nH]c3nccc2-3)CC1	–	metastatic CRPC patients	320 mg b.i.d., grade 3 to 4, treatment-related, added: enzalutamide 160 mg daily	–	incidence of Erythema	0%
CCOc1c([C@H](C)n2nc(C)c3c(N)ncnc32)cc(Cl)c(F)c1[C@@H]1CNC(=O)C1	–	patients with B-cell malignancies, plasma	oral, 30 mg, day 15, all cohorts, monotherapy	–	Cmax	2570 nM
Cc1c(-c2ccc(N3CCc4cccc(C(=O)Nc5nc6ccccc6s5)c4C3)nc2C(=O)O)cnn1CC12CC3(C)CC(C)(C1)CC(OCCNCC[C@H](O)CO)(C3)C2	–	anaesthetised male beagle dogs	intravenous infusion, 0.3 mg/kg/min, 105 min	relative to: vehicle	cardiac output change	-50%
N#Cc1ccc2c(c1)[C@H]1CCCN(C(=O)c3ccc4[nH]cnc4c3)[C@H]1C2	–	human females	360 mg, end of trial	–	SHBG	36 nmol/L
CC(C)c1nc(N(C)S(C)(=O)=O)nc(-c2ccc(F)cc2)c1/C=C/[C@@H](O)C[C@@H](O)CC(=O)O	refers to: haematoma	healthy men	oral, dose not given, 8 days, treatment-emergent, crossover trial	–	subjects with adverse event	0%
N=C(N)NCCNC(=O)C1(Nc2ccccc2)CCN(Cc2ccccc2)CC1	–	Sprague-Dawley rats, both sexes, plasma	intravenous, 2.5 mg/kg, mean of both sexes	–	volume of distribution	1.2 ± 0.6 L
C=C[C@@](C)(/C=C/c1ccc(O)cc1)CCC=C(C)C	three freeze-thaw cycles	rat plasma	8 ng/mL, -70 °C freeze	–	accuracy	98.1%
CN[C@@H]1COc2c(S(=O)(=O)NC(=O)Nc3c4c(cc5c3CCC5)CCC4)cnn2C1	–	healthy human volunteers, urine	oral, 600 mg, high-fat meal	–	amount excreted in urine 0-48 h	71.4 mg
CC(C)(C)c1ccc(O)c(CN(Cc2cc(C(C)(C)C)ccc2O)C2CCC(NC(N)=O)CC2)c1 (stereo not drawn)	–	C57BL/6 mouse, male, plasma	oral, 10 mg/kg	–	dose-normalised Cmax	102 ng/mL per mg/kg
CC(=O)O[C@H]1C(=O)[C@@]2(C)[C@H]([C@H](OC(=O)c3ccccc3)[C@]3(O)C[C@H](OC(=O)[C@H](O)[C@@H](NC(=O)c4ccccc4)c4ccccc4)C(C)=C1C3(C)C)[C@]1(OC(C)=O)CO[C@@H]1C[C@@H]2O	refers to: Anaemia	patients with advanced solid tumours	intravenous, dose not given, grade 3 and 4, possibly related to drug	–	adverse event incidence	26%
O=C(O)CCC(=O)O.[2H]C([2H])([2H])Oc1cc(C)c2[nH]ccc2c1CN1CC[C@@H](C2CC2)C[C@H]1c1ccc(C(=O)O)cc1	multiple ascending dose	healthy Chinese subjects	300 mg once daily	–	subjects with elevated LDL TEAE	0%
Cc1cc(NC2CCN(C(=O)OC3CCN(C(=O)/C=C/CN(C)C)C3)CC2)n2ncc(C(C)C)c2n1 (stereo not drawn)	Phase I dose escalation CTCAE v4.0, refers to: ALT increased	patients with advanced solid tumours	dose not given, Total dosing any grade	–	patients with adverse event	17%
Cc1nc2cccc(OCC(C)(C)C(=O)NC(C)C)c2c(N)c1C(=O)O	–	male Swiss albino CD-1 mouse, bone marrow	oral, 500 mg/kg, 24 h	–	micronucleated PCE per 14000 PCE	5
COC(=O)C1=CO[C@@H](O[C@@H]2O[C@H](CO)[C@@H](O)[C@H](O)[C@H]2O)[C@@H]2C(CO)=CC[C@H]12	–	rat plasma	200 ng/mL, 2 weeks, -70 °C, post-preparative stability	–	accuracy	103%
CC(C)(C(=O)N1CCOc2c(C#N)cncc2C1)C(F)F	refers to: skin abrasion	human	oral, 10 mg once daily, 14 days, multiple ascending dose	–	subjects with adverse event	0%
CC(C)C[C@H](NC(=O)[C@@H](Cc1c[nH]c2ccccc12)NC(=O)[C@H](Cc1ccc(O)cc1)NC(=O)[C@H](CO)NC(=O)[C@H](Cc1c[nH]c2ccccc12)NC(=O)[C@H](Cc1c[nH]cn1)NC(=O)[C@@H]1CCC(=O)N1)C(=O)N[C@@H](CCCNC(=N)N)C(=O)N1CCC[C@H]1C(=O)NCC(N)=O	–	Chinese CPP girls	intramuscular, 22.5 mg, 12 months, day 1, month 6	–	patients, drug-related Constipation TEAEs	1.6%
CCn1c(=O)c(-c2cc(NC(=O)Nc3ccccc3)c(F)cc2Br)cc2cnc(NC)cc21	refers to: gastrointestinal disorders	healthy human, matched to severe hepatic impairment	oral, 50 mg single dose	–	participants with drug-related TEAE	0%
c1ccc2cc3ccccc3cc2c1	–	PDMS-water partitioning	PAH compilation	–	literature range of log K	3.82 to 4.5 log units
COc1cccc(OC)c1-c1cc(C(=O)NC2(C(=O)O)C3CC4CC(C3)CC2C4)nn1-c1ccc(C(=O)N(C)CCCN(C)CCCN(C)C(=O)CN2CCN(CC(=O)[O-])CCN(CC(=O)[O-])CCN(CC(=O)[O-])CC2)cc1C(C)C.[177Lu+3] (stereo not drawn)	–	mouse, HT-29 xenograft	4 h post injection, biodistribution	relative to: tumour over heart uptake	tumour-to-heart ratio	6.7
Cc1ccc([C@@H]2O[C@H](CO)[C@@H](O)[C@H](O)[C@H]2O)cc1Cc1ccc(-c2ccc(F)cc2)s1	–	Japanese type 2 diabetes patients	400 mg, day 1, 24 h urine collection	relative to: baseline	urinary sodium excretion change	36.1 mEq
C=CCn1c(=O)c2cnc(Nc3ccc(N4CCN(C)CC4)cc3)nc2n1-c1cccc(C(C)(C)O)n1	–	human	oral, 250 mg once daily, monotherapy lead-in, -5 days	geometric mean	Cmax	1060 nM
O=C(c1cccnc1-c1ccncc1)N1CCC(O)(Cc2ccccc2)CC1	–	healthy Japanese adults, plasma	oral, 600 mg single dose	–	Cmax/dose	5.47 ng/mL/mg
O=C(c1nc2n(n1)[C@H](c1ccccc1)C[C@@H]2F)C1CC1	–	human	225 mg single dose, mean	–	renal clearance	0.011 L/h
CCCC(CCC)C(=O)Oc1cccc(C(O)CCN)c1.O=CO (stereo not drawn)	–	Abca4-/-Rdh8-/- mice, photic damage	oral, 20 mg/kg, 7 days, flash intensity 0.003	–	ERG, scotopic, rod b-wave	36.2 µV and 42.7 µV and 59.4 µV and 34.2 µV and 56 µV and 51.3 µV
CNCCOC12CC3(C)CC(C)(CC(Cn4ncc(-c5ccc(N6CCc7cccc(C(=O)Nc8nc9ccccc9s8)c7C6)nc5C(=O)O)c4C)(C3)C1)C2	–	anaesthetised male beagle dogs	intravenous bolus, 0.03 mg/kg, 15 min	–	plasma concentration	14 ± 1.2 ng/mL
CCc1cc(C(=O)NC)c2nccc(N3CCc4c(cc(Cn5ccnc5)cc4-c4cn(C)nc4C(F)(F)F)C3=O)c2c1	–	Sprague Dawley rats	oral, 100 mg/kg once daily, 7 days	–	blood HGB	133 ± 4.11 g/L

Some of these lines once more:
SMILES	assay	test system	conditions	how to read	measurement	result
C/C(O)=C(\C#N)C(=O)Nc1ccc(C(F)(F)F)cc1	–	CD-1 mice female, plasma	oral, 10 mg/kg leflunomide daily, 24 h	–	free plasma concentration	90700 ± 13700 nM
Cc1c(O)c(=O)ccn1CCO.Cl	shake-flask, refers to: iron(III) complex	1-octanol/Tris buffer	pH 7.4, ligand:iron 10:1	–	partition coefficient	0.003 ± 0.0005
CNC(=O)c1ccc(-c2cnc3ncc(Cc4ccc5ncccc5c4)n3n2)cc1F	refers to: Pyrexia	gastric cancer patients	oral, 600 mg twice daily, expansion cohort, grade 3-4	–	patients with adverse event	11%
CCN(CC)CCNC(=O)c1cc(Cl)c(N)cc1OC	ultrafiltration	dog, cell homogenate	1 µM, 15 min	–	unbound fraction in cells	0.17
NC1(C(=O)N[C@@H](CCO)c2ccc(Cl)cc2)CCN(c2nc[nH]c3nccc2-3)CC1	–	metastatic CRPC patients	320 mg b.i.d., grade 3 to 4, treatment-related, added: enzalutamide 160 mg daily	–	incidence of Erythema	0%
CCOc1c([C@H](C)n2nc(C)c3c(N)ncnc32)cc(Cl)c(F)c1[C@@H]1CNC(=O)C1	–	patients with B-cell malignancies, plasma	oral, 30 mg, day 15, all cohorts, monotherapy	–	Cmax	2570 nM
Cc1c(-c2ccc(N3CCc4cccc(C(=O)Nc5nc6ccccc6s5)c4C3)nc2C(=O)O)cnn1CC12CC3(C)CC(C)(C1)CC(OCCNCC[C@H](O)CO)(C3)C2	–	anaesthetised male beagle dogs	intravenous infusion, 0.3 mg/kg/min, 105 min	relative to: vehicle	cardiac output change	-50%
N#Cc1ccc2c(c1)[C@H]1CCCN(C(=O)c3ccc4[nH]cnc4c3)[C@H]1C2	–	human females	360 mg, end of trial	–	SHBG	36 nmol/L
CC(C)c1nc(N(C)S(C)(=O)=O)nc(-c2ccc(F)cc2)c1/C=C/[C@@H](O)C[C@@H](O)CC(=O)O	refers to: haematoma	healthy men	oral, dose not given, 8 days, treatment-emergent, crossover trial	–	subjects with adverse event	0%
